Measured values of several laboratories.
Protocols differ between the studies behind these lines.
Cell line: SK-OV-3

| SMILES | test | setting | how to read | quantity | result |
| --- | --- | --- | --- | --- | --- |
| C=C(CC)C(=O)c1ccc(OCC(=O)NCCNC(=O)COc2ccc(C(=O)C(=C)CC)c(Cl)c2Cl)c(Cl)c1Cl | cell growth or viability, CCK-8 | 2.5 µM | – | inhibition | > 50% |
| CN[C@@H](C)C(=O)N[C@H]1CN(C(=O)Cc2ccccc2)CC[C@H]2CC[C@@H](C(=O)NCc3ccc(Br)cc3)N2C1=O | apoptosis, annexin V/PI flow cytometry | 24 h | – | minimum effective concentration | 100 to 300 nM |
| Clc1nc2ccccc2cc1-c1nc2ccccc2[nH]1 | cell growth or viability, MTT | 48 h | – | IC50 | > 100 µM |
| CC(C)(C)c1cc2c(O)c(c1)Cc1cc(C(C)(C)C)cc(c1OCC(=O)NCc1ccccn1)Cc1cc(C(C)(C)C)cc(c1O)Cc1cc(C(C)(C)C)cc(c1OCC(=O)NCc1ccccn1)COC2 | cell growth or viability, MTT | 15 µM, 72 h | – | inhibition | 54% |
| CC(=O)OC[C@H]1O[C@@H](Sc2sc(C(=O)c3ccc(C)cc3)c(N)c2-c2nc3ccccc3s2)[C@H](OC(C)=O)[C@@H](OC(C)=O)[C@H]1OC(C)=O | SRB | 10 µM, 48 h | baseline: untreated | growth | 52.6% |
| COc1ccc2nc(Cl)c(-c3nc4cc(Cl)ccc4[nH]3)cc2c1 | cell growth or viability, MTT | 48 h | – | IC50 | 8.83 µM |
| CC(C)(C)c1cc2c(O)c(c1)Cc1cc(C(C)(C)C)cc(c1OCC(=O)Nc1nccs1)Cc1cc(C(C)(C)C)cc(c1O)Cc1cc(C(C)(C)C)cc(c1OCC(=O)Nc1nccs1)COC2 | cell growth or viability, MTT | 15 µM, 72 h | – | inhibition | 40% |
| CC(=O)OC[C@H]1O[C@@H](Sc2sc(C(=O)c3ccc(Br)cc3)c(N)c2-c2nc3ccccc3s2)[C@H](OC(C)=O)[C@@H](OC(C)=O)[C@H]1OC(C)=O | SRB | 10 µM, 48 h | baseline: untreated | growth | 57.3% |
| CC/C=C\C/C=C\C/C=C\C/C=C\C/C=C\C/C=C\CCC(=O)Nc1ccn(C2OC(CO)C(O)C2(F)F)c(=O)n1 (stereo not drawn) | NCI60 screen | – | – | TGI | 14.2 µM |
| CC(C)(C)c1cc2c(O)c(c1)Cc1cc(C(C)(C)C)cc(c1OCC(=O)Nc1ccccn1)Cc1cc(C(C)(C)C)cc(c1O)Cc1cc(C(C)(C)C)cc(c1OCC(=O)Nc1ccccn1)COC2 | cell growth or viability, MTT | 15 µM, 72 h | – | inhibition | 48% |
| CC(=C(c1ccc(O)cc1)c1ccc(Cl)cc1)c1ccc(Cl)cc1 | cell growth or viability | – | – | GI50 | 1040 nM |
| CC(=O)OCC1(O)C(Nc2cccc(C(C)=O)c2)C(N)C(NC(=O)N(C)C)(C(C)OC(C)=O)C1(C)O (stereo not drawn) | cell growth or viability | – | – | EC50 | 123 nM |
| COc1ccc2nc(Cl)c(-c3nc4cc(F)ccc4[nH]3)cc2c1 | cell growth or viability, MTT | 48 h | – | IC50 | > 100 µM |
| C=C(CC)C(=O)c1ccc(OCC(=O)NCCCCNC(=O)COc2ccc(C(=O)C(=C)CC)c(Cl)c2Cl)c(Cl)c1Cl | cell growth, CCK-8 | 72 h | – | IC10 | ~1 µM |
| CC(C)(C)c1cc2c(O)c(c1)Cc1cc(C(C)(C)C)cc(c1OCC(=O)Nc1ccncc1)Cc1cc(C(C)(C)C)cc(c1O)Cc1cc(C(C)(C)C)cc(c1OCC(=O)Nc1ccncc1)COC2 | cell growth or viability, MTT | 15 µM, 72 h | – | inhibition | 36% |
| Clc1nc2ccccc2cc1-c1nc2cc(Br)ccc2[nH]1 | cell growth or viability, MTT | 48 h | – | IC50 | 34.1 µM |
| CC(=O)c1cccc(NC2C(NC(=O)OCc3ccccc3)C(NC(=O)N(C)C)(C(C)O)C(C)(O)C2(O)COC(=O)c2c(C)cccc2O)c1 (stereo not drawn) | cell growth or viability | – | – | EC50 | 12000 nM |
| Fc1ccc2[nH]c(-c3cc4cc5c(cc4nc3Cl)OCO5)nc2c1 | cell growth or viability, MTT | 48 h | – | IC50 | > 100 µM |
| CC(=O)c1cccc(NC2C(N)C(NC(=O)N(C)C)(C(C)OC(=O)C(C)(C)C)C(C)(O)C2(O)COC(=O)C(C)(C)C)c1 (stereo not drawn) | cell growth or viability | – | – | EC50 | 593 nM |
| CN[C@@H](C)C(=O)N[C@H]1CN(C(=O)Cc2ccccc2)CC[C@H]2CC[C@@H](C(=O)NCc3ccc(C(F)(F)F)cc3)N2C1=O | cIAP1 degradation, western blot, measured: cIAP1 | 24 h | – | onset concentration | > 100 nM |
| COc1ccc2nc(Cl)c(-c3nc4cc(C)c(C)cc4[nH]3)cc2c1 | cell growth or viability, MTT | 48 h | – | IC50 | 36.9 µM |
